# Published values of several laboratories.
# Protocols differ between the studies behind these lines. ± marks the error that the study gave.
Compound,target or system,test system,setting,how to read,quantity,result
CCCCCCCCCCCCCCCC(=O)N[C@@H](CCC(=O)NCCOCCOCCC(=O)NCCOCCOCCC(=O)NCCCC[C@H](NC(=O)[C@H](CC(=O)O)NC(=O)[C@H](CC(C)C)NC(=O)[C@H](Cc1ccc(O)cc1)NC(=O)[C@H](CCCCN)NC(=O)[C@H](CO)NC(=O)[C@H](Cc1ccc(O)cc1)NC(=O)[C@H](CC(=O)O)NC(=O)[C@H](CO)NC(=O)[C@@H](NC(=O)[C@H](Cc1ccccc1)NC(=O)[C@@H](NC(=O)CNC(=O)[C@H](CCC(N)=O)NC(=O)[C@@H](CO)NC(=O)[C@@H](N)Cc1c[nH]cn1)[C@@H](C)O)[C@@H](C)O)C(=O)N[C@@H](CCCNC(=N)N)C(=O)N[C@@H](CCCNC(=N)N)C(=O)N[C@@H](C)C(=O)N[C@@H](CCC(N)=O)C(=O)N[C@@H](CC(=O)O)C(=O)N[C@@H](Cc1ccccc1)C(=O)N[C@H](C(=O)N[C@@H](CCC(N)=O)C(=O)N[C@@H](Cc1c[nH]c2ccccc12)C(=O)N[C@@H](CC(C)C)C(=O)N[C@@H](CC(C)C)C(=O)N[C@@H](CC(N)=O)C(=O)N[C@H](C(=O)NCC(=O)NCC(=O)N1CCC[C@H]1C(=O)N[C@@H](CO)C(=O)N[C@@H](CO)C(=O)NCC(=O)N[C@@H](C)C(=O)N1CCC[C@H]1C(=O)N1CCC[C@H]1C(=O)N1CCC[C@H]1C(=O)N[C@@H](CO)C(N)=O)[C@@H](C)O)C(C)C)C(=O)O,,"rhesus monkey, male, plasma","subcutaneous, 20 µg/kg, day 28, toxicokinetics, mean",,AUC(0-t),93.9 ng·h/mL
CC[C@H](C)C(=O)N1CCC(NC(=O)Nc2ccc(OC(F)(F)F)c(F)c2)CC1,,healthy volunteers,"oral, 24 mg single dose",,subjects with COVID-19 TEAE,16.7%
CCCCCCCCCCCCCCCCCC(=O)N[C@@H](CCC(=O)NCCCC[C@H](NC(=O)[C@H](CCC(N)=O)NC(=O)[C@H](CCCCN)NC(=O)[C@H](CO)NC(=O)[C@H](CC(C)C)NC(=O)[C@H](CC(=O)O)NC(=O)[C@H](CO)NC(=O)[C@@H](NC(=O)[C@H](Cc1ccccc1)NC(=O)[C@@H](NC(=O)CNC(=O)[C@H](CCC(N)=O)NC(=O)[C@@H](CO)NC(=O)[C@@H](N)Cc1c[nH]cn1)[C@@H](C)O)[C@@H](C)O)C(=O)N[C@@H](CC(=O)O)C(=O)N[C@@H](CCC(=O)O)C(=O)N[C@@H](CCC(N)=O)C(=O)N[C@@H](CC(C)C)C(=O)N[C@@H](C)C(=O)N[C@@H](CCCCN)C(=O)N[C@@H](CC(=O)O)C(=O)N[C@@H](Cc1ccccc1)C(=O)N[C@H](C(=O)N[C@@H](CCC(=O)O)C(=O)N[C@@H](Cc1c[nH]c2ccccc12)C(=O)N[C@@H](CC(C)C)C(=O)N[C@@H](CCCCN)C(=O)N[C@@H](C)C(=O)NCC(=O)NCC(=O)N1CCC[C@H]1C(=O)N[C@@H](CO)C(=O)N[C@@H](CO)C(=O)NCC(=O)N[C@@H](C)C(=O)N1CCC[C@H]1C(=O)N1CCC[C@H]1C(=O)N1CCC[C@H]1C(=O)N[C@@H](CO)C(N)=O)[C@@H](C)CC)C(=O)O,,"obese diabetic cynomolgus monkey, serum","dose not given, day 43",,ALT,50.9 ± 16.3 U/L
CCc1ccccc1NC(=S)N/N=C/c1ccc(O)cc1O,MCF7,,"25 µM, 24 h",,viability,> 90%
CCCCCCCCCCCCCCCC(=O)N[C@@H](CCC(=O)NCCCC[C@H](NC(=O)[C@H](CC(=O)O)NC(=O)[C@H](CO)NC(=O)[C@@H](NC(=O)[C@H](Cc1ccccc1)NC(=O)[C@@H](NC(=O)CNC(=O)[C@H](CCC(N)=O)NC(=O)[C@H](C)NC(=O)[C@@H](Cc1ccc(O)cc1)NC(C)=O)[C@@H](C)O)[C@@H](C)O)C(=O)N[C@@H](CO)C(=O)N[C@@H](CCCCN)C(=O)N[C@@H](Cc1ccc(O)cc1)C(=O)N[C@@H](CC(C)C)C(=O)N[C@@H](CC(=O)O)C(=O)N[C@@H](CCC(=O)O)C(=O)N[C@@H](CCCNC(=N)N)C(=O)N[C@@H](C)C(=O)N[C@@H](C)C(=O)N[C@@H](CCC(N)=O)C(=O)N[C@@H](CC(=O)O)C(=O)N[C@@H](Cc1ccccc1)C(=O)N[C@H](C(=O)N[C@@H](CCC(N)=O)C(=O)N[C@@H](Cc1c[nH]c2ccccc12)C(=O)N[C@@H](CC(C)C)C(=O)N[C@@H](CC(C)C)C(=O)N[C@@H](CCC(=O)O)C(=O)NCC(=O)NCC(=O)N1CCC[C@H]1C(=O)N[C@@H](CO)C(=O)N[C@@H](CO)C(=O)NCC(=O)N[C@@H](C)C(=O)N1CCC[C@H]1C(=O)N1CCC[C@H]1C(=O)N1CCC[C@H]1C(=O)N[C@@H](CO)C(N)=O)C(C)C)C(=O)O,,"Wistar rat, male, plasma","intravenous, 0.02 mg/kg",,dose-normalised Cmax,15600 ng/mL per mg/kg
CC[C@H](C)[C@H](NC(=O)[C@H](CCCN)NC(=O)[C@H](CC(=O)O)NC(=O)[C@H](CC(C)C)NC(=O)C(C)(CC(C)C)NC(=O)[C@@H](NC(=O)[C@H](CO)NC(=O)[C@H](Cc1ccc(O)cc1)NC(=O)[C@H](CC(=O)O)NC(=O)[C@H](CO)NC(=O)[C@@H](NC(=O)[C@H](Cc1ccccc1)NC(=O)[C@@H](NC(=O)CNC(=O)[C@H](CCC(=O)O)NC(=O)C(C)(C)NC(=O)[C@@H](N)Cc1ccc(O)cc1)[C@@H](C)O)[C@@H](C)CC)[C@@H](C)CC)C(=O)N[C@@H](Cc1c[nH]cn1)C(=O)N[C@@H](CCC(N)=O)C(=O)NC(C)(C)C(=O)N[C@@H](CC(=O)O)C(=O)N[C@@H](Cc1ccccc1)C(=O)N[C@H](C(=O)N[C@@H](CCC(=O)O)C(=O)N[C@@H](Cc1ccc(O)cc1)C(=O)N[C@@H](CCCCNC(=O)COCCOCCNC(=O)COCCOCCNC(=O)CC[C@H](NC(=O)CCCCCCCCCCCCCCCCCCC(=O)O)C(=O)O)C(=O)N[C@@H](CC(C)C)C(=O)N[C@@H](CCC(=O)O)C(=O)NCC(=O)NCC(=O)N1CCC[C@H]1C(=O)N[C@@H](CO)C(=O)N[C@@H](CO)C(=O)NCC(=O)N[C@@H](C)C(=O)N1CCC[C@H]1C(=O)N1CCC[C@H]1C(=O)N1CCC[C@H]1C(=O)N[C@@H](CO)C(N)=O)C(C)C (stereo partly shown),,"human, plasma","subcutaneous, 25 mg, single dose, healthy volunteers",,Cmax,2780 ng/mL
CC[C@H](C)[C@H](NC(=O)CNC(=O)[C@H](C)NC(=O)[C@H](CCC(=O)O)NC(=O)[C@@H]1CCCN1C(=O)[C@H](CC(=O)O)NC(=O)[C@H](C)NC(=O)[C@@H](N)CCC(=O)O)C(=O)NCC(=O)N[C@@H](C)C(=O)N[C@H](C(=O)N[C@@H](CC(C)C)C(=O)N[C@@H](CCCCN)C(=O)N[C@H](C(=O)N[C@@H](CC(C)C)C(=O)N[C@H](C(=O)N[C@H](C(=O)NCC(=O)N[C@@H](CC(C)C)C(=O)N1CCC[C@H]1C(=O)N[C@@H](C)C(=O)N[C@@H](CC(C)C)C(=O)N[C@H](C(=O)N[C@@H](CO)C(=O)N[C@@H](Cc1c[nH]c2ccccc12)C(=O)N[C@H](C(=O)N[C@@H](CCCCN)C(=O)N[C@@H](CCCNC(=N)N)C(=O)N[C@@H](CCCCN)C(=O)N[C@@H](CCCNC(=N)N)C(=O)N[C@@H](CCC(N)=O)C(=O)N[C@@H](CCC(N)=O)C(N)=O)[C@@H](C)CC)[C@@H](C)CC)[C@@H](C)O)[C@@H](C)O)C(C)C)C(C)C,"human erythrocytes, washed",,"1 h, 37 °C, 2% v/v RBC suspension",,HD50,8.6 ± 0.3 µmol/L
CCCC/C=C/C(=O)N[C@@H](Cc1csc2ccccc12)C(=O)N[C@H]1COC(=O)[C@@H]2C[C@@H](C)CN2C(=O)[C@H](C)NC(=O)[C@@H]2CCCCN2C(=O)[C@@H]2CCCN2C1=O,SARS-CoV-2,SB2,,reference: CC50 over IC50,selectivity index,35 to 70
CC[C@H](C)[C@H](NC(=O)[C@H](CO)NC(=O)[C@H](Cc1ccc(O)cc1)NC(=O)[C@H](CC(=O)O)NC(=O)[C@H](CO)NC(=O)[C@@H](NC(=O)[C@H](Cc1ccccc1)NC(=O)[C@@H](NC(=O)CNC(=O)[C@H](CCC(=O)O)NC(=O)[C@@H](C)NC(=O)[C@@H](N)Cc1ccc(O)cc1)[C@@H](C)O)[C@@H](C)CC)C(=O)N[C@@H](C)C(=O)N[C@@H](CCSC)C(=O)N[C@@H](CC(=O)O)C(=O)N[C@@H](CCCCN)C(=O)N[C@H](C(=O)N[C@@H](Cc1c[nH]cn1)C(=O)N[C@@H](CCC(N)=O)C(=O)N[C@@H](CCC(N)=O)C(=O)N[C@@H](CC(=O)O)C(=O)N[C@@H](Cc1ccccc1)C(=O)N[C@H](C(=O)N[C@@H](CC(N)=O)C(=O)N[C@@H](Cc1c[nH]c2ccccc12)C(=O)N[C@@H](CC(C)C)C(=O)N[C@@H](CC(C)C)C(=O)N[C@@H](C)C(=O)N[C@@H](CCC(N)=O)C(=O)N[C@@H](CCCCN)C(=O)N1CCC[C@H]1C(=O)N[C@@H](CO)C(=O)N[C@@H](CO)C(=O)NCC(=O)N[C@@H](C)C(=O)N1CCC[C@H]1C(=O)N1CCC[C@H]1C(=O)N1CCC[C@H]1C(=O)N[C@@H](CO)C(N)=O)C(C)C)[C@@H](C)CC,,human kidney membranes,"5 h, 37 °C",,metabolic stability,stable
CC[C@H](C)[C@@H]1NC(=O)[C@H](CCCNC(=N)N)NC(=O)[C@H](CO)NC(=O)[C@H](CCC(=O)O)NC(=O)[C@H](CC(=O)O)NC(=O)CNC(=O)CNC(=O)[C@H]([C@@H](C)O)NC(=O)[C@H](Cc2ccccc2)NC(=O)[C@H](CO)NC(=O)[C@H]([C@@H](C)O)NC(=O)[C@H](C)NC(=O)[C@@H]2CSSC[C@@H](C(=O)N[C@@H](Cc3ccc(O)cc3)C(=O)N[C@@H](Cc3ccccc3)C(=O)N[C@H](C(=O)N[C@H](C(=O)NCC(=O)O)[C@@H](C)O)[C@@H](C)O)NC(=O)[C@H]([C@@H](C)O)NC(=O)[C@H](CSSC[C@H](NC(=O)[C@H](CCC(=O)O)NC(=O)[C@H](CO)NC(=O)[C@H](CCCCN)NC(=O)[C@H](Cc3ccc(O)cc3)NC(=O)[C@@H]3CCCN3C(=O)[C@H](Cc3ccccc3)NC(=O)[C@H](CCCCN)NC(=O)[C@H](CCCNC(=N)N)NC(=O)[C@H](CCCCN)NC(=O)[C@H](CCCCN)NC(=O)[C@H](Cc3ccc(O)cc3)NC(=O)[C@@H]3CCCN3C(=O)[C@@H](NC(=O)[C@H](CC(=O)O)NC(=O)[C@H](CCCCN)NC(=O)[C@H](CCCCN)NC(=O)[C@@H](NC(=O)[C@@H](NC(=O)[C@@H](N)CCC(=O)O)C(C)C)[C@@H](C)CC)[C@@H](C)O)C(=O)N[C@@H](CC(C)C)C(=O)N[C@@H](CCCCN)C(=O)N[C@@H](C)C(=O)N2)NC(=O)[C@H](CCCCN)NC(=O)[C@H](Cc2ccccc2)NC(=O)[C@H](Cc2ccccc2)NC(=O)CNC(=O)[C@@H]2CCCN2C(=O)[C@H](CCCCN)NC(=O)CNC(=O)[C@H](CCC(=O)O)NC(=O)[C@H](CCC(N)=O)NC1=O,,C57BL/6J mouse,"intrahippocampal, 1 µL of 20 µM",,time to death,10 to 20 min

# For quick reference, copied from above:
Compound,target or system,test system,setting,how to read,quantity,result
CC[C@H](C)[C@H](NC(=O)CNC(=O)[C@H](C)NC(=O)[C@H](CCC(=O)O)NC(=O)[C@@H]1CCCN1C(=O)[C@H](CC(=O)O)NC(=O)[C@H](C)NC(=O)[C@@H](N)CCC(=O)O)C(=O)NCC(=O)N[C@@H](C)C(=O)N[C@H](C(=O)N[C@@H](CC(C)C)C(=O)N[C@@H](CCCCN)C(=O)N[C@H](C(=O)N[C@@H](CC(C)C)C(=O)N[C@H](C(=O)N[C@H](C(=O)NCC(=O)N[C@@H](CC(C)C)C(=O)N1CCC[C@H]1C(=O)N[C@@H](C)C(=O)N[C@@H](CC(C)C)C(=O)N[C@H](C(=O)N[C@@H](CO)C(=O)N[C@@H](Cc1c[nH]c2ccccc12)C(=O)N[C@H](C(=O)N[C@@H](CCCCN)C(=O)N[C@@H](CCCNC(=N)N)C(=O)N[C@@H](CCCCN)C(=O)N[C@@H](CCCNC(=N)N)C(=O)N[C@@H](CCC(N)=O)C(=O)N[C@@H](CCC(N)=O)C(N)=O)[C@@H](C)CC)[C@@H](C)CC)[C@@H](C)O)[C@@H](C)O)C(C)C)C(C)C,"human erythrocytes, washed",,"1 h, 37 °C, 2% v/v RBC suspension",,HD50,8.6 ± 0.3 µmol/L
